Measurements of several laboratories.
Compare with care: the assays were run in different laboratories. Numbers after ± are the reported error.
CYP2D6: Cytochrome P450 2D6 (CYP2D6, Homo sapiens, UniProt P10635)
Sequence of UniProt P34947 (whole entry, looked up): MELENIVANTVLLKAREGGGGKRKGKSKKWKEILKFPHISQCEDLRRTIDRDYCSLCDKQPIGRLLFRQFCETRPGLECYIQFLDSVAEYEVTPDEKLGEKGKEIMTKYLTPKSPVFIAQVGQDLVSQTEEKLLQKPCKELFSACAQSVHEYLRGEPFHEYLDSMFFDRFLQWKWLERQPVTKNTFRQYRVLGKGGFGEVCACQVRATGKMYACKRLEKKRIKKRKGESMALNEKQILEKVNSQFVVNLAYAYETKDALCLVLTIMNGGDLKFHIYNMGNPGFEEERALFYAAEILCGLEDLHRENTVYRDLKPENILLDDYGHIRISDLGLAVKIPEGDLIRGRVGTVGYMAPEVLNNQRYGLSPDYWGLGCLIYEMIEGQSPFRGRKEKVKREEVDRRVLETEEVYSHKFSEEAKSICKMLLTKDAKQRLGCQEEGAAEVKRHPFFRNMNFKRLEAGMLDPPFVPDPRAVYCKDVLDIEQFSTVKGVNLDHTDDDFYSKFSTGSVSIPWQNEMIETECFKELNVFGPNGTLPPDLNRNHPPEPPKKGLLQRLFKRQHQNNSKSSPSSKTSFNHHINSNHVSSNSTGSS
Sequence of UniProt Q8TCC7 (whole entry, looked up): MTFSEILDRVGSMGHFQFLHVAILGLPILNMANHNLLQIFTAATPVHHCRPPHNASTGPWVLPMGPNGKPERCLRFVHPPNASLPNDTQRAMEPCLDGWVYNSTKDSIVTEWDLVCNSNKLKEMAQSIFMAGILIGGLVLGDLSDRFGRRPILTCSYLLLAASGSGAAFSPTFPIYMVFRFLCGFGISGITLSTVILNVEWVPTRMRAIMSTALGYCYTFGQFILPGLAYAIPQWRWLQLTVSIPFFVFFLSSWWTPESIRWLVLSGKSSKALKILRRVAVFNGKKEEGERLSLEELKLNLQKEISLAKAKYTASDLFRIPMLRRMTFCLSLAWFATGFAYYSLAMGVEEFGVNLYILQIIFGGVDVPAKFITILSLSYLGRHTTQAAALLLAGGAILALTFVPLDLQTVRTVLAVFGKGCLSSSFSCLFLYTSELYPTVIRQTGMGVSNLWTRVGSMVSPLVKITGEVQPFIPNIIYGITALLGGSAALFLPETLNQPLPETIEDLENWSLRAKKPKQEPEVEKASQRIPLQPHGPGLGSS
Sequence of UniProt P78368 (whole entry, looked up): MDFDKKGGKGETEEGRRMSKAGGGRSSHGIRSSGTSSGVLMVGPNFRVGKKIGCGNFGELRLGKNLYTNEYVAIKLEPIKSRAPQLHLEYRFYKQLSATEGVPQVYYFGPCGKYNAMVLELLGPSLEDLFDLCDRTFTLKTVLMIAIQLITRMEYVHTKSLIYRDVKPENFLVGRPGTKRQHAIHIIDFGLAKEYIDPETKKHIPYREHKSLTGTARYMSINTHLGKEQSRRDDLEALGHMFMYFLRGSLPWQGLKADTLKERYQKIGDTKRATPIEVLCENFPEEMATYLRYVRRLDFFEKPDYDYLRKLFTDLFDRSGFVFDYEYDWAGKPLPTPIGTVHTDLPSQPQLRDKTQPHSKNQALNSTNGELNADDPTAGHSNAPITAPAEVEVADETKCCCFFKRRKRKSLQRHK
Sequence of UniProt Q00534 (whole entry, looked up): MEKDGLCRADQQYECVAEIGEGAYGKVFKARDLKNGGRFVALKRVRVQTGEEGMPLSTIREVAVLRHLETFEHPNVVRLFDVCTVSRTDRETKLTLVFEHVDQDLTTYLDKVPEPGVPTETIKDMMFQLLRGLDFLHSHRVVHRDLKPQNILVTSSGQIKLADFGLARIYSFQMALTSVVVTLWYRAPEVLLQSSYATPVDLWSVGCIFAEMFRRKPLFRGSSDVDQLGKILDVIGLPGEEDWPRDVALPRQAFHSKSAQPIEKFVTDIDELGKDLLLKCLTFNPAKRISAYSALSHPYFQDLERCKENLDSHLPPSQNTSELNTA
Sequence of UniProt P78329 (whole entry, looked up): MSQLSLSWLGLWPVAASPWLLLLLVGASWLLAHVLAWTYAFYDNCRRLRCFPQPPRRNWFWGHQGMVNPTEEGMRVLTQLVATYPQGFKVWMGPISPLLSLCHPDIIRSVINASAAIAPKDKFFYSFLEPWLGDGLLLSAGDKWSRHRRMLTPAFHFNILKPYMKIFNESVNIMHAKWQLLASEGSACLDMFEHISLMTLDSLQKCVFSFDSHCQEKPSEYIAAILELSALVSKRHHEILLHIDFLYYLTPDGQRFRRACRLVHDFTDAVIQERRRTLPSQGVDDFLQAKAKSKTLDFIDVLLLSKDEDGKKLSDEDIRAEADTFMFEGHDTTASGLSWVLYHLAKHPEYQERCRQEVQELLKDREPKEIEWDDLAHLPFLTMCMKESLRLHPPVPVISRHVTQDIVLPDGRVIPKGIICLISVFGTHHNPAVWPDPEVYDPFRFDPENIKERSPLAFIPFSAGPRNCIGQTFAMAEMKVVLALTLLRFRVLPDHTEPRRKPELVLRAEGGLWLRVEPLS

Structure (SMILES)	tested on	test	system	conditions	scale	endpoint	result
O=C1NC2(CC2)COc2ncc(F)cc2[C@H]2COCCN2c2ccn3ncc1c3n2			Sprague-Dawley rat, male, plasma	oral, 2.5 mg/kg/day, end of treatment, 4-week repeated-dose toxicity		prothrombin time	9 ± 0.4 s
CC(C)C[C@H](NC(=O)[C@H](C)NC(=O)CNC(=O)CCCCCN1C(=O)[C@@H]2[C@H](C1=O)[C@H]1C=C[C@@H]2C1)C(=O)N[C@H](C(=O)N1CCC[C@H]1C(=O)N[C@@H](CCCNC(=N)N)C(=O)NCC(=O)N[C@@H](C)C(=O)N[C@@H](CC(=O)O)C(=O)N[C@@H](CO)C(=O)NCC(=O)N[C@@H](CO)C(=O)NCC(N)=O)[C@@H](C)O	α-chymotrypsin	substrate, HPLC	DPBS	200 µM, 50 min, 37 °C, with: chymotrypsin 1.0 µM		cleavage	44%
CCCCCn1ccc(C(=O)NC(C)(C)c2ccc(CNC(C)=O)cc2)n1	CYP3A4 human	RT-qPCR, item: CYP3A4 mRNA	HepaRG	concentration not given	baseline: positive control	CYP induction	< 10%
CS(C)(=O)=Nc1ccc(-c2ccc(-c3nc4cc(O[C@@H]5CO[C@H]6[C@@H]5OC[C@H]6O)[nH]c4cc3F)cc2)cc1	G protein-coupled receptor kinase 5 (GRK5, Homo sapiens, UniProt P34947)	enzyme activity, inhibitor		10 µM		inhibition	-11%
CCN(CC)CCOc1ccc(-c2nnn(Cc3ccc(OC)cc3)c2N)cc1	CYP2D6	inhibitor				IC50	> 50 µM
CC(=O)NCCCC[C@@H]1NC(=O)[C@H](Cc2c[nH]c3c(C)cccc23)NC(=O)[C@H]([C@@H](C)O)NC(=O)[C@H](CC(N)=O)NC(=O)[C@@H](NC(C)=O)C(C)(C)SSC(C)(C)[C@@H](C(=O)N[C@@H](Cc2ccc(OCCN)cc2)C(=O)N[C@@H](Cc2ccc3ccccc3c2)C(=O)NC2(C(=O)N[C@@H](CCC(=O)O)C(=O)N[C@@H](CC(N)=O)C(=O)N[C@@H](Cc3cccnc3)C(=O)N(C)CC(N)=O)CCOCC2)NC1=O	Organic anion transporter 3 (SLC22A8, Homo sapiens, UniProt Q8TCC7)	substrate	MDCK-II overexpressing transporter	5 µM, 30 min		uptake rate	0.432 ± 0.063 pmol/mg/min
O=C(CN1C(=O)C2(CCN(C(=O)c3cnc4[nH]ncc4c3)CC2)c2c(F)cccc21)NCC(F)(F)F	CYP2D6	enzyme activity, inhibitor				IC50	9.6 µM
CC(=O)N[C@H](C(=O)N[C@H](C(=O)N1CCC[C@H]1C(=O)NCC(=O)N[C@@H](CC(C)C)C(=O)N[C@@H](CCCCN)C(=O)N1CCC[C@H]1C(=O)N[C@@H](Cc1ccccc1)C(=O)N[C@H](C(=O)NCC(=O)NCC(=O)N[C@@H](Cc1ccc(O)cc1)C(=O)NCC(=O)N[C@@H](CCCNC(=N)N)C(=O)N[C@@H](CCCCN)C(=O)N[C@@H](CCCCN)C(=O)N[C@@H](CCCNC(=N)N)C(=O)N[C@@H](CCCNC(=N)N)C(=O)N[C@@H](CCC(N)=O)C(=O)N[C@@H](CCCNC(=N)N)C(=O)N[C@@H](CCCNC(=N)N)C(=O)N[C@@H](CCCNC(=N)N)C(N)=O)C(C)C)C(C)C)C(C)C	trypsin (pig)	substrate, RP-HPLC	Tris buffer	2.5 mg/mL, 0.1667 h, pH 8.0, 37 °C		degradation	~20%
COc1ccccc1-c1n[nH]c2nc(NC3CCN(C(=O)Cc4ccc(F)cc4F)CC3)ncc12		bead binding, competition bead pull-down, item: LINJ.36.0190	Leishmania donovani axenic amastigote extract	10 µM	baseline: vehicle	relative abundance	1.08
O=C(CN1C(=O)C2(CCN(C(=O)c3ccc4[nH]ncc4c3)CC2)c2c(Br)cccc21)NCC(F)(F)F	CYP2D6	enzyme activity, inhibitor				IC50	1.1 µM
CN(C)[C@H]1C[C@@]23CC[C@@]4(O2)C(=CC[C@]2(C)[C@@H](c5ccc6ccncc6c5)CC[C@H]24)C=C3[C@@H](O)[C@@H]1O	Casein kinase I isoform gamma-2 (CSNK1G2, Homo sapiens, UniProt P78368)	ATP probe labelling, inhibitor, KiNativ profiling		0.1 µM		inhibition	-3.8%
Cc1cc(-c2ccc3ccccc3c2)nnc1NCCN1CCN(C)CC1	Cytochrome P450 4F2 (Homo sapiens, UniProt P78329)	substrate	recombinant enzyme	1000 nM, 30 min		remaining parent compound	89.8%
C[C@@H](c1ccc2nccn2c1)n1nnc2ncc(-c3cn[nH]c3)nc21	CYP2D6	enzyme activity, inhibitor	human, liver microsomes			IC50	27 µM
CC(C)C[C@H](NC(=O)[C@H](CC(C)C)NC(=O)[C@H](CCCCN)NC(=O)[C@H](Cc1ccccc1)NC(=O)[C@@H](NC(=O)[C@H](CCCNC(=N)N)NC(=O)[C@@H](N)CCCCN)C(C)C)C(=O)N[C@@H](CCCCN)C(=O)N[C@@H](CCCNC(=N)N)C(=O)N[C@@H](Cc1ccc(O)cc1)C(=O)N[C@@H](Cc1c[nH]c2ccccc12)C(=O)N[C@@H](CCCNC(=N)N)C(=O)N[C@@H](CCC(N)=O)C(=O)N[C@@H](CC(C)C)C(=O)N[C@@H](CCCCN)C(=O)N[C@@H](CCCCN)C(=O)N1CCC[C@H]1C(=O)N[C@H](C(=O)N[C@@H](CCCNC(=N)N)C(=O)NCCOCCOCC(=O)O)C(C)C	trypsin or chymotrypsin			0 to 6 h, 37 °C, with: protease ratio 50:1		MIC after protease incubation	no effect
CCCCCCCCCCCC(=O)C(C)C(=O)N1CCC[C@H]1C(=O)NC(C)(C)C(=O)NC(C)(C)C(=O)NC(C)(C)C(=O)N[C@](C)(CC)C(=O)NCCC(=O)N[C@@H](C)C(=O)N[C@](C)(CC)C(=O)N[C@@H](C)C(=O)N[C@@H](CC(C)C)C(=O)N[C@](C)(CC)C(=O)NCCC(=O)N[C@@H](C)C(=O)N[C@](C)(CC)C(=O)NCCC(=O)N[C@@H](C)C(=O)NC(C)(C)C(=O)NC(C)(C)C(=O)NC(C)(C)C(=O)N[C@@H](C)C(=O)N[C@@H](CC(=O)O)C(=O)O (stereo partly shown)	human neutrophil elastase	LC-MS		40 µM, 120 min, pH 7.5, 37 °C	baseline: 0 h	remaining intact peptide	64.9%
CC(C)[C@H]1NC(=O)C[C@H]2/C=C/CCSSC[C@@H](NC1=O)C(=O)N[C@H](Cc1cccc3ccccc13)C(=O)NCC(=O)O2	Cyclin-dependent kinase 6, with cyclin D3 (CDK6, Homo sapiens, UniProt Q00534)	enzyme activity, inhibitor		10 µM		inhibition	9%
